Published values from different studies.
Lines come from different studies, so protocols differ. pEC50, pIC50: −log10 of the molar value.
Cell line: MDA-MB-231
Observed: cell growth or viability

Structure (SMILES) | test | conditions | quantity | value
CCCOc1ccc2c(C)c(CC)c(=O)oc2c1C | MTT | 250 µg/mL | viability | 35.4%
NCC(=O)Nc1ccccc1/N=c1\cc(-c2ccc3c(c2)OCO3)oc2c(N)cccc12 | CCK-8 | 1 µM | inhibition | -8.56%
CCOc1ccc2c(C)c(CC)c(=O)oc2c1C | MTT | 62.5 µg/mL | viability | 96.1%
O=C(Nc1ccccc1)Nc1ccc(Oc2nc3ccccc3n3cnnc23)cc1 | MTT | 6.25 µM, 24 h | viability | 99.5%
O=C1CCCCC1=C1Sc2nc3ccc(S(=O)(=O)N4CCCC4)cc3nc2S1 | MTT | 1.56 µM, 24 h | viability | 88.6%
O=C(Nc1ccc(Cl)cc1)Nc1ccc(Oc2nc3ccccc3n3cnnc23)cc1 | MTT | 6.25 µM, 24 h | viability | 100%
NCC(=O)Nc1ccccc1/N=c1\cc(-c2ccc3c(c2)OCO3)oc2c([N+](=O)[O-])cccc12 | CCK-8 | 1 µM | inhibition | 10.5%
CCc1c(C)c2ccc(OCC(=O)NNC(=S)Nc3ccccc3)c(C)c2oc1=O | MTT | 31.25 µg/mL | viability | 63%
N#CC(C(=O)Nc1cccc(C(F)(F)F)c1)=C1Sc2nc3ccc(S(=O)(=O)N4CCCC4)cc3nc2S1 | MTT | 1.56 µM, 24 h | viability | 95%
COc1cccc2c1C(=O)c1c(O)c3c(c(O)c1C2=O)C[C@@](O)(C(=O)CO)C[C@@H]3O[C@H]1C[C@H](N)[C@H](O)[C@H](C)O1 | MTT | 48 h | pEC50 | 5.25
NCCC(=O)Nc1cccc(/N=c2\cc(-c3ccc4c(c3)OCO4)oc3ccccc23)c1 | CCK-8 | 1 µM | inhibition | -6.06%
CCOC(=O)C(C(C)=O)=C1Sc2nc3ccc(S(=O)(=O)N4CCCC4)cc3nc2S1 | MTT | 12.5 µM, 24 h | viability | 20.9%
C[C@H](N)C(=O)Nc1ccccc1/N=c1\cc(-c2ccc3c(c2)OCCO3)oc2cc(F)ccc12 | CCK-8 | 1 µM | inhibition | -5.04%
Cc1c(Cc2ccccc2)c(=O)oc2c(C)c(OCC(=O)NN=Cc3ccc(Cl)cc3)ccc12 | MTT | 125 µg/mL | viability | 30.8%
COc1cccc(NC(=O)Nc2ccc(Oc3nc4ccccc4n4cnnc34)cc2)c1 | MTT | 12.5 µM, 24 h | viability | 56.8%
CC(C)(C)[C@H](N)C(=O)Nc1ccccc1/N=c1\cc(-c2ccc3c(c2)OCO3)oc2ccccc12 | CCK-8 | 1 µM | inhibition | 6.49%
CC(=NNC(=O)COc1ccc2c(C)c(Cc3ccccc3)c(=O)oc2c1C)c1ccc(Br)cc1 | MTT | 62.5 µg/mL | viability | 39.8%
NCC(=O)Nc1ccccc1/N=c1\cc(-c2ccc3c(c2)OCCO3)oc2cc(F)ccc12 | CCK-8 | 1 µM | inhibition | -2.6%
O=C(Nc1ccc(Oc2nc3ccccc3n3cnnc23)cc1)Nc1cccc(Cl)c1 | MTT | 12.5 µM, 24 h | viability | 70.6%
Nc1nc2ccc(-c3c/c(=N\c4ccccc4NC(=O)C4CCNC4)c4ccccc4o3)cc2o1 (centres unmarked) | CCK-8 | 1 µM | inhibition | 68.7%
CCc1c(C)c2ccc(OCC=Cc3ccccc3)c(C)c2oc1=O | MTT | 250 µg/mL | viability | 26%
CS(=O)(=O)NCCC(=O)Nc1ccccc1/N=c1\cc(-c2ccc3nc(N)oc3c2)oc2ccccc12 | CCK-8 | 1 µM | inhibition | -6.88%
CCNC(=S)NNC(=O)COc1ccc2c(C)c(CC)c(=O)oc2c1C | MTT | 250 µg/mL | viability | 22.9%
CNC(=O)c1cc(Oc2ccc(NC(=O)Nc3ccc(Cl)c(C(F)(F)F)c3)cc2)ccn1 | MTT | 1.56 µM, 24 h | viability | 88.5%
CCc1c(C)c2ccc(OCC(=O)NN=Cc3ccc([N+](=O)[O-])cc3)cc2oc1=O | MTT | 500 µg/mL | viability | 13.7%
COc1cccc2c1C(=O)c1c(O)c3c(c(O)c1C2=O)C[C@@](O)(C(=O)CO)C[C@@H]3O[C@H]1C[C@H](N)[C@H](O)[C@H](C)O1 | MTT | 75 h | pIC50 | 5.67
